Measurements gathered from unrelated publications.
Each line is one published result; not all experiments were run side by side. Values joined by “and” are separate records of one study, mostly repeats; a detail may differ. Numbers after ± are the reported error.

Under “plasma protein binding”, `C/C=C/C[C@H](C)[C@@H](OC)[C@@H](C)[C@H](O)C[C@H]1OC(=O)C=C[C@H]1CC` is recorded as 98% (mouse).
`CCCCCN1C[C@H](O)[C@@H](O)[C@H](O)[C@@H]1CO` gave a plasma concentration of 3580 ng/mL (LC-MS/MS; mouse Hexb-/- total, plasma; 300 mg/kg/day, arithmetic mean).
`CSc1cc(Oc2ccnc3[nH]c(=O)cnc23)ccc1NC(=O)Nc1cc(C(C)(C)C)nn1-c1ccccc1` has a plasma concentration of 11.7 µM and 11 µM and 6.99 µM and 9.98 µM (NSG mouse, female, tumor; oral, 20 mg/kg, 1 h after last dose).
Under plasma stability, `COC(=O)/C=C/c1cc(C(=O)NCc2ccc(C)cc2)cc(-c2ccc3ncnn3c2)c1` is recorded as “unstable” (mouse, plasma; 37 °C).
The plasma concentration of `Cc1cc([C@H]2C[C@H]3[C@@H](CF)SC(N)=N[C@@]3(c3ccc(F)cc3F)CO2)on1` is reported as 0.307 µM (male 129/SVE wild-type mouse, plasma; subcutaneous, 100 mg/kg, 5 h).
`O=C1CCC(N2Cc3cc(CO)c(F)cc3C2=O)C(=O)N1` (stereo not shown) has a plasma concentration of 13.2 ± 9 ng/mL (CD-1 mouse, male; oral, 10 mg/kg parent drug, 0.17 h).
`Cc1cc([C@H]2C[C@H]3[C@@H](C)SC(N)=N[C@@]3(c3ccc(F)cc3F)CO2)on1` gave a plasma concentration of 0.103 µM (male 129/SVE mouse, plasma; subcutaneous, 50 mg/kg, 9 h).
`C[C@@H](O)[C@H]1C(=O)N2C(C(=O)O)=C(S[C@@H]3CN[C@H](C(=O)N(C)C)C3)[C@H](C)[C@H]12` has a plasma concentration of 5320 ng/mL (BALB/c mouse, male, plasma; intraperitoneal, dose not given, 6 h, together with: combination treatment).
`CCn1c2ccc(CNCCOCCOCCOCCC(=O)NCCOc3ccc(CCc4nc5cc(-c6c(C)noc6C)ccc5n4CCN4CCOCC4)cc3F)cc2c2ccc(-c3cc(C)cs3)cc21` gave a plasma exposure of greater than 400 nM (Swiss albino mouse, male, plasma; intraperitoneal, 50 mg/kg, over 8 h).
For `Cc1noc(C)c1-c1ccc2nc(-c3cnn(CC(C)(C)O)c3)nc(N3CCOC[C@@H]3c3ccccc3)c2c1`, the plasma clearance was 7.3 mL/min/kg (CD-1 mouse, plasma; intravenous, 2 mg/kg).

Some of these lines once more:
`C[C@@H](O)[C@H]1C(=O)N2C(C(=O)O)=C(S[C@@H]3CN[C@H](C(=O)N(C)C)C3)[C@H](C)[C@H]12` has a plasma concentration of 5320 ng/mL (BALB/c mouse, male, plasma; intraperitoneal, dose not given, 6 h, together with: combination treatment).
